Results pooled from the literature.
Each line is one published result; not all experiments were run side by side. ± gives the spread as reported.

SMILES | cell line | assay | setting | scale | quantity | result
CCOC(=O)c1cn(C23CCCC(C)(CCC4C2CC4(C)C)C3)nn1 (stereo not drawn) | HT-29 | cell growth or viability, CCK-8 | 50 µM | – | inhibition | 89.9%
Cc1ncsc1-c1ccc(C(C)NC(=O)C2CC(O)CN2C(=O)C(NC(=O)CCCCCCCCCCN2CCCC(Nc3ncc(Cl)c(Nc4ccccc4S(=O)(=O)C(C)C)n3)C2)C(C)(C)C)cc1 (stereo not drawn) | 22Rv1 | RNA-seq, measured: ZNF470 mRNA | concentration not given | baseline: DMSO | log2 fold change | -1.74
O=S(=O)(Nc1ccc(OC(F)(F)F)cc1)N1CCCC(C2c3ccc(F)cc3CCc3cc(F)ccc32)C1 (stereo not drawn) | D425 | immunoblot, measured: AKT | concentration not given | – | phosphorylation level | decreased
CN1CCCNC(=O)c2cccc(c2)C(=O)NCCCN(C)CCCNc2cccc3c2C(=O)c2cccc(c2C3=O)NCCC1 | SAS | RNA-Seq, measured: PNN mRNA | 1 µM, 6 h | baseline: untreated cells | log2 fold change | -0.608
CC(=O)N[C@@H](Cc1c[nH]c2ccccc12)C(=O)N[C@@H](CCC(=O)O)C(=O)N[C@@H](C)C(=O)N[C@@H](CC(=O)O)C(=O)COC(=O)c1c(C)cccc1C | THP-1 cells, LPS-primed | pyroptosis, LDH release | 25 µM, LPS 1 µg/mL, 4 h, added: nigericin 5 µM, 2 h | – | cell lysis | 34.8%
COc1cccc(CNC[C@@](O)(COCc2ccccc2)[C@@H]2CC[C@@H](C)C[C@H]2OCc2ccccc2)c1 | HeLa | cell growth or viability, MTT | 10 µM, 72 h | – | inhibition | 80.3%
CCN(CC)CC(=O)Nc1cccc(-n2cc(-c3ccc4ccc(-c5cn(-c6cccc(NC(=O)CN(CC)CC)c6)nn5)cc4c3)nn2)c1 | RCC4 | PCR angiogenesis array, measured: HPSE | 5 x IC50, 6 h, normoxia | baseline: untreated | fold regulation | -1.34
COC1CCC(Nc2nc(-c3nccn3C)nc3sc(-c4ccn(C)n4)c(-c4ccccc4)c23)C1 (stereo not drawn) | BxPC-3 | cAMP-Glo | 1.0 µM, 1 h, added: isoprenaline 15 min | – | cAMP level | no effect
CCC(=CCc1c(O)cc2c(c1O)C(=O)CC(c1ccccc1O)O2)CC (stereo not drawn) | HeLa | cell growth or viability, MTT | 7.5 µM, 48 h | – | inhibition | 5.13%
CC(C)(C)c1cc(-c2ccc3cccnc3n2)nc(-c2ccc3cccnc3n2)c1.COc1ccncc1.[Cl-].[Cl-].[Ru+2].c1ccc2cc3nc4c5cccnc5c5ncccc5c4nc3cc2c1 | SK-MEL-28 | – | light 633 nm | baseline: dark EC50 over light EC50 | phototherapeutic index | 143
CCC(=CCc1c(O)cc2c(c1O)C(=O)CC(c1ccc(O)cc1OC)O2)CC (stereo not drawn) | HeLa | cell growth or viability, MTT | 100 µM, 48 h | – | inhibition | 100%
COC1=C2CC(C)CC(OC)C(O)C(C)C=C(C)C(OC(N)=O)C(OC)C=CC=C(C)C(=O)NC(=CC1=O)C2=O (stereo not drawn) | Rh30 | ChIP-seq, measured: H3K36me3 peak | concentration not given, intron chr10:120787800-120842999 | baseline: untreated control | log fold change | -0.5
N#C[C@@H]1CCCN1C(=O)CNC(=O)c1ccnc2ccc(OCCCN3CCN(C(=O)CCc4ccc(O)c(CN5CCN6CC(=O)[O][Al-]([18F])([O]C(=O)C5)[O]c5ccc(CCC(=O)N7CCN(CCCOc8ccc9nccc(C(=O)NCC(=O)N%10CCC[C@H]%10C#N)c9c8)CC7)cc5C6)c4)CC3)cc12 (stereo partly drawn) | HT1080 cells expressing human FAP | – | 120 min, 37 °C | – | internalized fraction | 72.6 ± 3.3%
O=c1cc(Cn2ccnc2)c2cc3c(cc2o1)CCC3 | COS-7 (untransfected) | – | 500 µM, unit not given | baseline: 3 µM ionomycin | calcium mobilisation signal | 2.82 ± 1.66
COC(=O)c1ccc(S(=O)(=O)NC23CCCC(C)(CCC4C2CC4(C)C)C3)cc1 (stereo not drawn) | HT-29 | cell growth or viability, CCK-8 | 50 µM | – | inhibition | 48.3%
CNS(=O)(=O)Nc1nccc(Cc2c(C)c3ccc(Oc4ncccc4F)cc3oc2=O)c1F | NCI-H2052 | cell viability | 7 days | – | IC50 | > 1 µM
CC(=O)N[C@H](C(=O)N[C@@H](CCC(=O)O)C(=O)N[C@@H](C)C(=O)N[C@@H](CC(=O)O)C(=O)COC(=O)c1c(C)cccc1C)C(C)C | THP-1 cells, LPS-primed | pyroptosis, LDH release | 25 µM, LPS 1 µg/mL, 4 h, added: nigericin 5 µM, 2 h | – | cell lysis | 85.3%
COc1ccc(CNC[C@@](O)(COCc2ccc(OC)cc2)[C@@H]2CC[C@@H](C)C[C@H]2OCc2ccc(OC)cc2)cc1 | A2780 | cell growth or viability, MTT | 10 µM, 72 h | – | inhibition | 97.3%

Excerpt of the above:
SMILES | cell line | assay | setting | scale | quantity | result
CN1CCCNC(=O)c2cccc(c2)C(=O)NCCCN(C)CCCNc2cccc3c2C(=O)c2cccc(c2C3=O)NCCC1 | SAS | RNA-Seq, measured: PNN mRNA | 1 µM, 6 h | baseline: untreated cells | log2 fold change | -0.608
CC(=O)N[C@@H](Cc1c[nH]c2ccccc12)C(=O)N[C@@H](CCC(=O)O)C(=O)N[C@@H](C)C(=O)N[C@@H](CC(=O)O)C(=O)COC(=O)c1c(C)cccc1C | THP-1 cells, LPS-primed | pyroptosis, LDH release | 25 µM, LPS 1 µg/mL, 4 h, added: nigericin 5 µM, 2 h | – | cell lysis | 34.8%
